Measurements from different studies.
Numbered parts are unrelated; each lists some results of a single study. Positions count from the first letter of the parent shown.

Set 1 — technique: universal PBM; form: double-stranded DNA, one strand shown; matrix: in vitro; concentration: not given; reading: higher = stronger binding
Target: Sal-like protein 4, full length isoform B (SALL4, Homo sapiens, UniProt Q9UJQ4-2, residues 1-616)
Notes: 8-mer, flanks averaged, mean of replicates
| Sequence | E-score |
| --- | --- |
| TCCGAACA | 0.0497 |
| CTCAGATC | -0.0828 |
| AAAGGGAT | 0.202 |
| ACGTCACC | -0.168 |
| GCTGGGCC | -0.396 |

Set 2 — technique: RNA Bind-n-Seq; form: RNA; matrix: in vitro; concentration: 365 nM; relative to: no-protein control; reading: higher = stronger binding
Target: RNA binding protein fox-1 homolog 2, RRM domain, GST-SBP tag (RBFOX2, Homo sapiens, UniProt O43251-10, residues 100-194)
Notes: natural RNA segment, single round, ends assumed
Shared flanks, not repeated: GGGAGUUCUACAGUCCGACGAUC … UGGAAUUCUCGGGUGCCAA
Construct (chain): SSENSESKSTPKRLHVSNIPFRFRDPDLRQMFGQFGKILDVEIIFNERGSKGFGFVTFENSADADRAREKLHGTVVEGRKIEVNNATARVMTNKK
| Sequence | RBNS enrichment (R) |
| --- | --- |
| GAGUGGGGAGCAUGGAACUCCUGGGCUCUUGUGGGGACGUUCAGGGUAUCGGGGUGCGAGGUCUGUCUGCACCGGCCCCCACAUCUAACCAGGCCCUGAUGUAGGGGUCG | 0.853 |
| UGCCUUUUAGUGGAGACCUGCAGGCAAGCCUUUGGCCCACUGAUCACUGCCUUUCCCCCUCCACCGAGGGCUAUUGGCUGACAAAGCCCCUUCCUGGCCUCACAACCACC | 0.289 |
| CCCCCACGGGGGUUCACUAGGUUUGGGCCUGAGAACACCUGUCUGGACAAAGGUGAUGAAACCAAGAGAGCUCCUGCCUUCUUGCCUGCCUACGUGAACCACCUGGGUCU | 0.66 |
| UUCUUGUCCCUGGCGCUGGCUAAAAAUAGCUCGUUUCCAGAUGCUUUUGUAGAUGACUGAAGUAUUGUAAGGCGCAGUCAGGAGCUCUGGACUCGAGAACGGCAGAAAGG | 0.626 |
| GUAUGUCUAUUGAUCCAUUUCUAGAAAAGAUGGUCGUAACUUAAGGAGUGAUAUUUGUGGAGGAGGAGCUGUACAGUUAUCACUGUGUGUGUUUUGUUAAUACAAGAGGC | 0.598 |
| UAGGACCAGAGCGGUAUCUCUGGCACCACACUAGGGACUAUCAGGUAAUAAAAGCUUUGACUCCCUGAGGAAAUGUCUCUCCCUUUGUCUGGGGGUGGGGCAGCCAUACA | 0.47 |
| UUUUUUUGAACAAAAUGACUGGCUUUGACAAAACUAUCUUGCUCUUUUUAAAUGUCACUUGAUACUAGAAUGCGAUUUAAAAGCAUGUAAUGCCUCAGGAGUCCGGCAUA | 1.22 |

Set 3 — target: CCNB2, cyclin fold, Cln2 fusion (human); technique: yeast growth competition, sequencing; matrix: yeast; notes: weak parent motif; relative to: not given; reading: higher = stronger binding
Parent: RRM2 docking peptide (human); SKTARRIFQEPTE; partner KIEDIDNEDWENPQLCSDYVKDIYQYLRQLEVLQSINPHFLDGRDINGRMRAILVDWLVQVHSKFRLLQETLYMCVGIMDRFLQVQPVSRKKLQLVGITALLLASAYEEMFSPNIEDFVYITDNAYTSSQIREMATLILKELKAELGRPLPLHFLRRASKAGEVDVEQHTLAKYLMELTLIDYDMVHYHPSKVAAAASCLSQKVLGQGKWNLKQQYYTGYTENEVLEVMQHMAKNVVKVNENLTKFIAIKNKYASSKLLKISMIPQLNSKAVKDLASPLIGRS
| Substitution | normalised enrichment score |
| --- | --- |
| SKTARRIAQEPTE [F8A] | 0.705 |
| SKTARRIFQEPAE [T12A] | 0.377 |
| SKTARRIFQEATE [P11A] | 0.108 |
| SKTARRIFQEPTA [E13A] | 0.254 |
| SKAARRIFQEPTE [T3A] | -0.159 |
| SKTARRIFQAPTE [E10A] | 0.19 |

Other studies, line by line
| Substance | target | assay | system | conditions | scale | endpoint | value |
| --- | --- | --- | --- | --- | --- | --- | --- |
| PhoQ, residues 284 288 289 292 302 303 GANMMA | PhoP, residues 12 14 15 18 19 LYHSL (Escherichia coli, UniProt P23836) | Sort-seq, refers to: YFP reporter | E. coli | PhoQ-PhoP variant library, with: 10 µM Mg2+ | relative to: high Mg2+ state, higher = stronger signaling | fold induction | 36.1 |

Some of these lines once more (set 1):
| Sequence | E-score |
| --- | --- |
| AAAGGGAT | 0.202 |
| GCTGGGCC | -0.396 |
